Published values collected from several papers.
Each numbered part is a random draw from the data of one study; scales do not carry over between parts. Changes are numbered by the printed parent chain.

Study 1 — technique: RNA Bind-n-Seq; molecule type: RNA; sample: in vitro; tested at: 365 nM; baseline: no-protein control; reading: higher = stronger binding
Target: RNA binding protein fox-1 homolog 2, RRM domain, GST-SBP tag (RBFOX2, Homo sapiens, UniProt O43251-10, residues 100-194)
Setting: natural RNA segment, single round, ends assumed
Constant ends, left off below: GGGAGUUCUACAGUCCGACGAUC … UGGAAUUCUCGGGUGCCAA
Construct (chain): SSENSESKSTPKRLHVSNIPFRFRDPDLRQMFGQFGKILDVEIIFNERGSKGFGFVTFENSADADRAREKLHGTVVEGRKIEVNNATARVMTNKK
Sequence | RBNS enrichment (R)
GGAUUGUCCUCUUGGUGGACCGGAGUCCUGUCCUUCUCUGCCAAAGAGUUUUACCAAGAUGAAAAGGGUUGAAACACCUGUGAGUGCCUUACAUGGGAAGAACUGCUCUA | 0.268
CCUCCCCUUGAGUGAUGGAAGGUGCCACUCACCUAGGCCAAAGCCCACAUCCUCUUGGGGACUCAGAGCACUCCUCUCCUUCCACUCCCAAAGACACGGGUAUUCCAGAC | 0.251
AUUGACGAUGGCAUUGAGCGUAGCUAGCUUAUUUCCAUCACUACGUGUUUUUGAGCUUGCUCUUACGUUUUAAGAGGUGCCAGGGGUACAUUUUUGCACUGAAAUCUAAA | 0.49
UCUUGCAGUUUUUUUGGUAAUACCGUGGUCUAUUUAUACAAAUAUUAAAAGUGCUGUUUAUAGAGCCUGUGUCAUGUGGCAACUUUCAGAGGCCCCAGAUGUUGGGGGUA | 1.22
CUCCUUGGUUAUCAUCCACUGCAGCUGCUAGUUAGAAAGGUUUGGAGGGAUGACUUUUAGUAAAUCAUGGGGAUUUUAUUGAUUUAUUUUCACUUUUGGGAUUUUGUGGG | 1.6
ACAUCACAGUACCACCCCAGGGGUGGCAGUAGACAACAACCCAGAAAUUUAGACAGGGAUCUCUUACCUUUGGAAAAUAGGGGUUAGGCAUGAAGGUGGUUGUGAUUAAG | 4
CUGUGUACAAGUUCACUUGUUGUCUUGAACACUGUCUCAAAUACCUGCUUUUUGUUUUGGAUAGUACCUUGUCUGUAUAAGAAGCUGGCCUUUCCAUAGAGAGGCCCUGG | 0.18
UUUUUUGAAAAUUUUAUAUACUUUAUAAAAACUCCAACCGUUUUUUUAAAAAAAAUAAAAUUUAACAGUUAUCAGCUGAUAGGCAAGUCAUUGAAAAAGUAAUUUUACGU | 1.03
UAAUCAUCUAAUUGUUUUUGUCUAGGUCGAGAAUGAAUGUUAGCUGAUGAAAUAAACCCUGACAAGGGUGGCGGGUGUGCUGUGGUCUCUGCGGGCAUAGCUGCCCCUCC | 0.432
ACCUUUCUGUUCUGUGGACUCGGUGCAGGUGGGUGGGGUGGUAAACAGUGGAAGAGCUCCUCCCCCCAAUUUUAUCCCAUUUUUUAAAAACCUCUCUCAACCAGUGAAAC | 0.88
UGGAGGUGUGCUUUCUCACAACGGGGUGUGUUUUCCCAUGUGCAGGGUGAGGUUUUUUUUUGCCACCCUGGACACAUGUUGGCCCCCUCAAAGAAUUUCUGUGGGGAUUU | 0.885
AAGGAUGCUGAGGCCUAGAGAUGGGAAGUGACUUGCUCAAGGUCACACAAUUGGAUAGUGACAUAGCUAGAGCGCAGAGUUCCUGAUUCCAAGUCACCUGUGCUUUCUGG | 0.472

Study 2 — technique: aptamer microarray, sandwich; molecule type: DNA with 2'F-ANA; sample: in vitro; tested at: 200 nM; added: Cy3 exosite-II aptamer, 400 nM; reading: higher = stronger binding; sequence: GGTTGGTGTGGTTGG
Target: Prothrombin, mature alpha-thrombin (F2, Homo sapiens, UniProt P00734)
Setting: whole 15-mer aptamer, many near background
Modification | mean fluorescence intensity [a.u.]
2'F-ANA at 1 2 4 6 7 12 13 14 15 | 63.6
2'F-ANA at 1 2 3 6 7 8 11 14 15 | 72.5
2'F-ANA at 1 3 4 7 8 9 10 11 12 15 | 97
2'F-ANA at 3 4 9 11 12 13 14 | 366
2'F-ANA at 3 4 5 8 10 11 12 13 14 15 | 191
2'F-ANA at 4 6 7 8 9 10 15 | 130
2'F-ANA at 4 5 10 11 13 | 49.3
2'F-ANA at 2 3 4 6 9 10 13 14 15 | 156
2'F-ANA at 1 2 3 4 6 7 11 12 14 | 68.1
2'F-ANA at 1 4 5 6 7 13 14 | 46.1
2'F-ANA at 3 7 11 12 13 14 | 651
2'F-ANA at 1 7 10 11 15 | 50.4
2'F-ANA at 2 4 7 8 10 11 12 13 | 98.4
2'F-ANA at 1 5 6 7 8 10 13 14 | 64.7
2'F-ANA at 1 2 5 9 14 | 43.9
2'F-ANA at 3 4 6 8 10 12 14 | 178
2'F-ANA at 1 3 4 5 7 11 14 | 44.8
2'F-ANA at 1 2 3 9 10 11 14 15 | 53.5
2'F-ANA at 1 3 6 9 11 12 13 | 333
2'F-ANA at 1 2 3 4 6 10 11 12 13 | 63.8
2'F-ANA at 1 3 4 5 7 8 9 13 15 | 50.3
2'F-ANA at 1 2 6 8 10 11 12 13 | 59
2'F-ANA at 1 2 3 7 9 12 13 15 | 326
2'F-ANA at 1 3 4 6 7 8 9 10 11 14 | 52.3

Study 3 — technique: universal PBM; molecule type: double-stranded DNA, one strand shown; sample: in vitro; tested at: 600 nM; reading: higher = stronger binding
Target: Sal-like protein 4, full length isoform A (SALL4, Homo sapiens, UniProt Q9UJQ4, residues 1-1053)
UniProt Q9UJQ4, sequence (whole entry, looked up): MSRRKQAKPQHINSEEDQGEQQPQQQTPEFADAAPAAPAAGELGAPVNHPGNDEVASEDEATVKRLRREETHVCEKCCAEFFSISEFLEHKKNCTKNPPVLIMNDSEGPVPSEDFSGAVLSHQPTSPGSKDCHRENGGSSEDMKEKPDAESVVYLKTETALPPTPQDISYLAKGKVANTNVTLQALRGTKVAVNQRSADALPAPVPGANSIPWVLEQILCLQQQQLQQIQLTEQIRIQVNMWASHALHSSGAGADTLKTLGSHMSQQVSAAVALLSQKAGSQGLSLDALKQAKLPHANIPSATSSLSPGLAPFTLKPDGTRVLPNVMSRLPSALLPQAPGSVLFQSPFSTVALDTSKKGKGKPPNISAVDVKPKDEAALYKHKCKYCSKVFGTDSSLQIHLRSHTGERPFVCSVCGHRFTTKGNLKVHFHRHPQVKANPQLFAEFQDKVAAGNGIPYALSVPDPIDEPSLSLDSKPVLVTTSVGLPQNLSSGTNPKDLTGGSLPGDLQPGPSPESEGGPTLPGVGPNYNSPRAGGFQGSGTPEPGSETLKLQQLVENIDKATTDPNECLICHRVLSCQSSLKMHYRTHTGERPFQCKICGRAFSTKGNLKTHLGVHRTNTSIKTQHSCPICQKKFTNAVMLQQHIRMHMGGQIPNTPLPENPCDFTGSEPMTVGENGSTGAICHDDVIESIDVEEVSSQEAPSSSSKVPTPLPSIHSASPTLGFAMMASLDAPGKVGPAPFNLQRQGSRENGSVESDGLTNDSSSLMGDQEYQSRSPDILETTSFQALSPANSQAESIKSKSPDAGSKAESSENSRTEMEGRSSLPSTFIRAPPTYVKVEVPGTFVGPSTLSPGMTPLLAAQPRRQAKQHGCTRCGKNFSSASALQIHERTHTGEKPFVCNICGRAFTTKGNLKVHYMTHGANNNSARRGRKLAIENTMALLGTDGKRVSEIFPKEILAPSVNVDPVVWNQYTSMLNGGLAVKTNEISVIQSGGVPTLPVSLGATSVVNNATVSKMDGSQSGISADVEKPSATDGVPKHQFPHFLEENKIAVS
Setting: 8-mer, flanks averaged, mean of replicates
Sequence | E-score
GATAATGC | 0.0918
GAAAGACA | 0.0884
CGGTAGTA | 0.0264
CAATTAAA | 0.229
CTCGCGGA | -0.237
GTAACGAC | -0.28
CTGATAAC | 0.156
AGCAAGAT | 0.0882
AAAGAACC | -0.0738
AGAACCAA | -0.0495
CTGAATCC | -0.016
GTACATCA | 0.153
CAGCAAAA | 0.123
GAAGGCGC | -0.237
ATGTAGCG | 0.00382
AGGCACTC | -0.143
AAGATAGG | 0.0935
GCAACATA | 0.18
ATCGTAGA | 0.12
AATAGTAA | 0.32
AACTGCGA | -0.17
ACGAAAAA | 0.24
CTTTCGCA | -0.0425
ACAGCAAT | 0.222
TATAGCGA | 0.189

Study 4 — target: CREBL2, bZIP domain (human); technique: DHFR protein complementation; sample: yeast; baseline: wild-type JUN-FOS pair; reading: higher = stronger binding
Setting: single substitutions, most at no-binding floor
Parent: JUN, bZIP domain (human); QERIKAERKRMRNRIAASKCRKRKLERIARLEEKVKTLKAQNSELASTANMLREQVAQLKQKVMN; partner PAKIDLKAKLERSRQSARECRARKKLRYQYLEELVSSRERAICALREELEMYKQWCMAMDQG
Variant | binding fitness
A29V | -1.6 natural log
A46H | -1.43 natural log
A57P | -1.52 natural log
E33F | -1.29 natural log
V56A | -1.5 natural log
T37P | -1.46 natural log
K34E | -1.64 natural log
V35F | -1.47 natural log
M51Q | -1.54 natural log
L45Y | -1.52 natural log
S47C | -1.44 natural log
A29N | -1.21 natural log
A57H | -1.24 natural log
E33L | -1.5 natural log
V56W | -1.55 natural log
A57Q | -1.44 natural log
T37C | -1.51 natural log
L31C | -1.56 natural log
K36T | -1.5 natural log
A29W | -1.41 natural log
N42D | -1.52 natural log
K36D | -1.42 natural log
I28P | -1.53 natural log
A40I | -1.62 natural log
L52E | -1.57 natural log

Study 5 — technique: protein-binding microarray; molecule type: double-stranded DNA, one strand shown; sample: in vitro; tested at: not given; reading: higher = stronger binding
Target: Max-binding protein MNT, bHLH-zipper, MAX partner unstated (MNT, Homo sapiens, UniProt Q99583, residues 220-300)
Setting: k-mer, scored over probes, only values ≥0.25
Residues (chain): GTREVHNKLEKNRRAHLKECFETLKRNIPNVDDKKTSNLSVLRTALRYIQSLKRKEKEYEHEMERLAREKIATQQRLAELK
Sequence | E-score
CTCCCCAC | 0.348
CGCGCGCA | 0.283
GCACCCAC | 0.359
GGCGTGCA | 0.378
ATGCGTGC | 0.396
GCACACGA | 0.298
AGGCACAT | 0.35
GCCATGCA | 0.351
ACGACCAC | 0.266
CGTGTTAC | 0.35
CATGCTCC | 0.357
GTGACTGA | 0.256
CACGCAGC | 0.319
ACGTGTAC | 0.444
ACATCGTG | 0.341
AACGCATG | 0.448
CATGCTTA | 0.373
CGTGTAAC | 0.337
CATGCACG | 0.414
GCGTGTGA | 0.327
CGCGGCAC | 0.277
CCCACCCC | 0.429
CGCCACCC | 0.348
GCGCACGA | 0.367
CACGTTGA | 0.435

Some of these lines once more (study 4):
Variant | binding fitness
A40I | -1.62 natural log
M51Q | -1.54 natural log
A57P | -1.52 natural log
I28P | -1.53 natural log
A29V | -1.6 natural log
L45Y | -1.52 natural log
K36D | -1.42 natural log
N42D | -1.52 natural log
K34E | -1.64 natural log
A57Q | -1.44 natural log
T37P | -1.46 natural log
E33L | -1.5 natural log
V35F | -1.47 natural log
V56A | -1.5 natural log
L52E | -1.57 natural log
